# Measurements gathered from unrelated publications.
# Parts stem from different laboratories: compare values within a part only. “And” joins repeats or separate records; there may be more than shown.

# Study 1 — read-out: binding; method: HTRF; tested at: 1000 nM
# Target: Membrane-associated tyrosine- and threonine-specific cdc2-inhibitory kinase (PKMYT1, Homo sapiens, UniProt Q99640)
# UniProt Q99640, sequence (whole entry, looked up): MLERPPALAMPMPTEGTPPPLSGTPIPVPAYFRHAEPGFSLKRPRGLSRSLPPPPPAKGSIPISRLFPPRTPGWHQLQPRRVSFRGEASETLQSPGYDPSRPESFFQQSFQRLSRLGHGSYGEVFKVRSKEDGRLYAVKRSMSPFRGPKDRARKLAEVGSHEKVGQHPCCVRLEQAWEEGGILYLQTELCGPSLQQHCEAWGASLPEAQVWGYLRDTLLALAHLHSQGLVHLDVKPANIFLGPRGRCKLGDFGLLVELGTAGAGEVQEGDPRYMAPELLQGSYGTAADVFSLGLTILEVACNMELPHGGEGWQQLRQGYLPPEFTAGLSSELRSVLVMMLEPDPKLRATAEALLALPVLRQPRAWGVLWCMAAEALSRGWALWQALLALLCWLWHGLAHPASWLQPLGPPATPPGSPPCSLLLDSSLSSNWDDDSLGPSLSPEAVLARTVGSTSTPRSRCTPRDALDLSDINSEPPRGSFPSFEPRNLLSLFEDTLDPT
SMILES,inhibition
Cc1ccc(O)c(C)c1-c1cnc2[nH]c(-c3cnc(N4CCC(CN5CCN(c6ccc(NC7CCC(=O)NC7=O)c(F)c6)CC5)CC4)nc3)cc2c1C#N (racemic),100%
Cc1ncc(-c2cc3c(N)c(-c4c(C)ccc(O)c4C)cnc3[nH]2)cn1,95.9%
Cc1ccc(O)c(C)c1-c1cnc2[nH]c(-c3cnc(N4CCC(CCN5CCN(c6ccc(N7CCC(=O)NC7=O)cc6F)CC5)CC4)nc3)cc2c1C#N,99.4% and 99.1%
Cc1ccc(O)c(C)c1-c1cnc2[nH]c(-c3cnc(N4CCC(CCN5CCN(c6ccc7c(c6)C(=O)N(C6CCC(=O)NC6=O)C7=O)CC5)CC4)nc3)cc2c1C#N (racemic),99.2% and 99.7%
Cc1ccc(O)c(C)c1-c1cnc2[nH]c(-c3cnc(N4CCC5(CC4)CC(N4CCN(c6cc7c(cc6F)c(N6CCC(=O)NC6=O)nn7C)CC4)CO5)nc3)cc2c1C#N (racemic),99.6%
Cc1ccc(O)c(C)c1-c1cnc2[nH]c(-c3cnc(N4CCC(CN5CCN(c6c(F)cc(NC7CCC(=O)NC7=O)cc6F)CC5)CC4)nc3)cc2c1C#N (racemic),98.2% and 97.7%

# Study 2 — read-out: binding; action: competitor; method: NanoBRET; cell line: HEK293
# SMILES: CN1CCC[C@H]1COc1nc2c(c(N3CCN(C(=O)C(F)(F)F)[C@@H](CC#N)C3)n1)CCN(c1cccc3cccc(Cl)c13)C2
# KRAS Q61R: GTPase KRas (KRAS, Homo sapiens, UniProt P01116, Q61R)
# KRAS Q61L: GTPase KRas (KRAS, Homo sapiens, UniProt P01116, Q61L)
target,tested at,normalized BRET
KRAS Q61R,1.69 nM,107% and 87.7% and 95.4%
KRAS Q61L,3.7 µM,58.7% and 61.5% and 70.3%
KRAS Q61R,11.1 µM,78% and 87.7% and 98.4%
KRAS Q61L,1.69 nM,92.8% and 102% and 92.7%
KRAS Q61L,137 nM,97.2% and 90.4% and 89.7%

# Single results of other studies
SMILES,tested on,assay,test system,setting,how to read,measurement,result
Cc1ccc2nc3c(c(Nc4ccc(O)cc4)c2c1)CCC3,Leishmania donovani,,"THP-1, DD8 promastigote",,baseline: THP-1 cytotoxicity over promastigote activity,selectivity ratio,5.86
Cn1cc(-c2cccc(CN3CCC4(CC3)COc3c4ccc4c3CN([C@H]3CCC(=O)NC3=O)C4=O)c2)cn1,,,cynomolgus monkey,"intravenous, 1 mg/kg",,Vss,8.31 L/kg and 8.34 L/kg and 7.8 L/kg
COc1ccc(OC)c(Nc2c3c(nc4ccccc24)CCC3)c1,Leishmania donovani,"viability, resazurin",DD8,promastigotes,,IC50,3.15 µM and 4.37 µM
Fc1ccc(Nc2c3c(nc4ccccc24)CCC3)cc1,Leishmania donovani,,"THP-1, DD8 promastigote",,baseline: THP-1 cytotoxicity over promastigote activity,selectivity ratio,3.03
COC(=O)c1cccc(Nc2c3c(nc4ccccc24)CCC3)c1,Leishmania donovani,,"THP-1, DD8 promastigote",,baseline: THP-1 cytotoxicity over promastigote activity,selectivity ratio,4.24

# Excerpt of the above (single results of other studies):
SMILES,tested on,assay,test system,setting,how to read,measurement,result
Fc1ccc(Nc2c3c(nc4ccccc24)CCC3)cc1,Leishmania donovani,,"THP-1, DD8 promastigote",,baseline: THP-1 cytotoxicity over promastigote activity,selectivity ratio,3.03
COC(=O)c1cccc(Nc2c3c(nc4ccccc24)CCC3)c1,Leishmania donovani,,"THP-1, DD8 promastigote",,baseline: THP-1 cytotoxicity over promastigote activity,selectivity ratio,4.24
